Published values collected from several papers.
A part holds a random share of what one study measured. Several values in a cell are separate wells, animals, samples, runs or records.
UniProt O43293, sequence (whole entry, looked up): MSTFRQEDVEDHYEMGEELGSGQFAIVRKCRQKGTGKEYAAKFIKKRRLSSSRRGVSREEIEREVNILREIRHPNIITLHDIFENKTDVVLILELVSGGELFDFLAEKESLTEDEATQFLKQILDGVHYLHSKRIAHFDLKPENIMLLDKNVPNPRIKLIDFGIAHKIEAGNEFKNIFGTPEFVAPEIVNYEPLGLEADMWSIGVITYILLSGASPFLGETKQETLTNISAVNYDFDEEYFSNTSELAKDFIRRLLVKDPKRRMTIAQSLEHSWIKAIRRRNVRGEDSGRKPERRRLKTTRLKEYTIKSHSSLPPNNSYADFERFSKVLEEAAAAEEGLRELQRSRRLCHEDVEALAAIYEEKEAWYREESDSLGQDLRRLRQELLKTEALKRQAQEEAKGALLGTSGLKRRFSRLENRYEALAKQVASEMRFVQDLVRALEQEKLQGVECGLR
UniProt P28223, sequence (whole entry, looked up): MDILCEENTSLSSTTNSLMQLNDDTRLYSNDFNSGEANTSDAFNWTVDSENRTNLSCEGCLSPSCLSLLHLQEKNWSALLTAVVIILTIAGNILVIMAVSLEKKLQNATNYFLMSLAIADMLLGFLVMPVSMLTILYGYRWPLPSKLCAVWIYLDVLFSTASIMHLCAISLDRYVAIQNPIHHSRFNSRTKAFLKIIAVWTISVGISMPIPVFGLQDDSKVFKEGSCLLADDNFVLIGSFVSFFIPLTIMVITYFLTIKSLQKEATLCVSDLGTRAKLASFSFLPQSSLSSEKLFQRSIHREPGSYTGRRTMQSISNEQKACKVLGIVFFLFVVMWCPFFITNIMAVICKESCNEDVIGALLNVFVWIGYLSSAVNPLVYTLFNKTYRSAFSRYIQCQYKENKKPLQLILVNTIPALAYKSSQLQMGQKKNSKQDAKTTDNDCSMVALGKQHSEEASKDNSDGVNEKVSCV
UniProt Q9P289, sequence (whole entry, looked up): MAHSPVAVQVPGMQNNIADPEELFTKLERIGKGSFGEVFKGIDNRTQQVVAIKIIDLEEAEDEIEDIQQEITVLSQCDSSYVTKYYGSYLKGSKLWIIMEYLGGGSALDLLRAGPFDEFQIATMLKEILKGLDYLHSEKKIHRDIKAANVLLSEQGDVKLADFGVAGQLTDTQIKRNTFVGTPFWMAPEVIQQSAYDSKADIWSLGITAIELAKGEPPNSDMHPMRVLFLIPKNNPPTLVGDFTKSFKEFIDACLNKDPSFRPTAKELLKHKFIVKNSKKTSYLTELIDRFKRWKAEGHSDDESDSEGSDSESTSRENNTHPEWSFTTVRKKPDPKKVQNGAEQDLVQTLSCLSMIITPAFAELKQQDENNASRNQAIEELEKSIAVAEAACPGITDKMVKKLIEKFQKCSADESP
UniProt Q8IW41, sequence (whole entry, looked up): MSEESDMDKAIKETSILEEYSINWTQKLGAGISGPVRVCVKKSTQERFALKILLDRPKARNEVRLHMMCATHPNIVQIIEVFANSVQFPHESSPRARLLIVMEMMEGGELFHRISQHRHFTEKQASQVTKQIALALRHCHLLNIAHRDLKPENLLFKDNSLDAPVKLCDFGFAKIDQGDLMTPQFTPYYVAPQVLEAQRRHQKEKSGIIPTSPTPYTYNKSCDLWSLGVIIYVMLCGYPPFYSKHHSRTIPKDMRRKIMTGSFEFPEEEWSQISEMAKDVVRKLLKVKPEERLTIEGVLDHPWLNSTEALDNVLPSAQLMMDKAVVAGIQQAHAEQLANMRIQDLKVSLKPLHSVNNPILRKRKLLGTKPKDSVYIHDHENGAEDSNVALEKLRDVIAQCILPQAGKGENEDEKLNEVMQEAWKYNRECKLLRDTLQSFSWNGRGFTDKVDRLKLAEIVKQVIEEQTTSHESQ
UniProt P16257, sequence (whole entry, looked up): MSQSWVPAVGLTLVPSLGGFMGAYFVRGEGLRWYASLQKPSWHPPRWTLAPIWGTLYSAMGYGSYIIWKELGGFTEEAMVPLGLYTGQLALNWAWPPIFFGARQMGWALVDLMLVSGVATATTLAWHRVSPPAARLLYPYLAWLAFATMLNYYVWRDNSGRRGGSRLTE

Series 1
Target: Eukaryotic initiation factor 4A-III (Homo sapiens, UniProt P38919)
UniProt P38919, sequence (whole entry, looked up): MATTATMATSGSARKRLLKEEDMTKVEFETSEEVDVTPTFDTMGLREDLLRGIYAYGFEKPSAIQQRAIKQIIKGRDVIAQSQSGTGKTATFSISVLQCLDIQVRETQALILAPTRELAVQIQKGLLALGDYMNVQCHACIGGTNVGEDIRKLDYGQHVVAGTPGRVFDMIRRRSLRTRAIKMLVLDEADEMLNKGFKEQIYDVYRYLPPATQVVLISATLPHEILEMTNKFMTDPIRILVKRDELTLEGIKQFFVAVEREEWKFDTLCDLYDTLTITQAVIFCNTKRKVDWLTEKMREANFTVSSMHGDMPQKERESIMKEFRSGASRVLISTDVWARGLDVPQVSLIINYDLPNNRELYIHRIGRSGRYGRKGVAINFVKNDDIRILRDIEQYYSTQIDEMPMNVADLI
Observed: RNA clamping
Method: fluorescence polarization
Concentration: concentration not given
With: FAM-labelled poly r(AG)8 RNA
Under “fluorescence polarization change”, `COc1ccc([C@@]23Oc4cc(OC)cc(OC)c4[C@]2(O)c2nc(C(C)C)[nH]c(=O)c2[C@H]3c2ccccc2)cc1` is recorded as 21.2 mP.
For `COC(=O)[C@@H]1[C@@H](c2ccccc2)[C@]2(c3ccc(OC)cc3)Oc3cc(OC)cc(OC)c3[C@@]1(O)[C@H]2O`, “fluorescence polarization change” read -3.1 mP.
`COc1ccc([C@@]23Oc4cc(OC)cc(OC)c4[C@]2(O)c2nc(-c4ccccc4Cl)[nH]c(=O)c2[C@H]3c2ccccc2)cc1`: “fluorescence polarization change” 24.8 mP.
`COc1ccc([C@@]23Oc4cc(OC)cc(OC)c4[C@]2(O)c2nc(-c4ccc(O)cc4)[nH]c(=O)c2[C@H]3c2ccccc2)cc1`: “fluorescence polarization change” 5.9 mP.
Under “fluorescence polarization change”, `COC(=O)[C@@H]1[C@@H](c2ccccc2)[C@@]2(c3ccc(Br)cc3)C(=O)[C@]1(O)c1c(OC)cc(OC)cc1N2C` is recorded as -5.1 mP.
For `COC(=O)[C@@H]1[C@@H](c2ccccc2)C2(c3ccc(OC)cc3)C(=O)C1(O)c1ccccc1N2C` (some centres unmarked), “fluorescence polarization change” read -10.1 mP.
For `COC(=O)[C@@H]1[C@@H](c2ccccc2)[C@]2(c3ccc(OC)cc3)Oc3cc(OC)cc(OC)c3[C@@]23OC(c2ccc(Cl)nc2)=N[C@@]13O`, “fluorescence polarization change” read 9.7 mP.
`COC(=O)[C@H]1[C@@H](c2ccccc2)C2(c3ccc(OC)cc3)Oc3cc(OC)cc(OC)c3[C@@]1(O)C2=O` — result for “fluorescence polarization change”: -5.8 mP.

Series 2
Target: DNA polymerase theta, ATPase domain (POLQ, Homo sapiens, UniProt O75417)
UniProt O75417, sequence (whole entry, unmodified, looked up): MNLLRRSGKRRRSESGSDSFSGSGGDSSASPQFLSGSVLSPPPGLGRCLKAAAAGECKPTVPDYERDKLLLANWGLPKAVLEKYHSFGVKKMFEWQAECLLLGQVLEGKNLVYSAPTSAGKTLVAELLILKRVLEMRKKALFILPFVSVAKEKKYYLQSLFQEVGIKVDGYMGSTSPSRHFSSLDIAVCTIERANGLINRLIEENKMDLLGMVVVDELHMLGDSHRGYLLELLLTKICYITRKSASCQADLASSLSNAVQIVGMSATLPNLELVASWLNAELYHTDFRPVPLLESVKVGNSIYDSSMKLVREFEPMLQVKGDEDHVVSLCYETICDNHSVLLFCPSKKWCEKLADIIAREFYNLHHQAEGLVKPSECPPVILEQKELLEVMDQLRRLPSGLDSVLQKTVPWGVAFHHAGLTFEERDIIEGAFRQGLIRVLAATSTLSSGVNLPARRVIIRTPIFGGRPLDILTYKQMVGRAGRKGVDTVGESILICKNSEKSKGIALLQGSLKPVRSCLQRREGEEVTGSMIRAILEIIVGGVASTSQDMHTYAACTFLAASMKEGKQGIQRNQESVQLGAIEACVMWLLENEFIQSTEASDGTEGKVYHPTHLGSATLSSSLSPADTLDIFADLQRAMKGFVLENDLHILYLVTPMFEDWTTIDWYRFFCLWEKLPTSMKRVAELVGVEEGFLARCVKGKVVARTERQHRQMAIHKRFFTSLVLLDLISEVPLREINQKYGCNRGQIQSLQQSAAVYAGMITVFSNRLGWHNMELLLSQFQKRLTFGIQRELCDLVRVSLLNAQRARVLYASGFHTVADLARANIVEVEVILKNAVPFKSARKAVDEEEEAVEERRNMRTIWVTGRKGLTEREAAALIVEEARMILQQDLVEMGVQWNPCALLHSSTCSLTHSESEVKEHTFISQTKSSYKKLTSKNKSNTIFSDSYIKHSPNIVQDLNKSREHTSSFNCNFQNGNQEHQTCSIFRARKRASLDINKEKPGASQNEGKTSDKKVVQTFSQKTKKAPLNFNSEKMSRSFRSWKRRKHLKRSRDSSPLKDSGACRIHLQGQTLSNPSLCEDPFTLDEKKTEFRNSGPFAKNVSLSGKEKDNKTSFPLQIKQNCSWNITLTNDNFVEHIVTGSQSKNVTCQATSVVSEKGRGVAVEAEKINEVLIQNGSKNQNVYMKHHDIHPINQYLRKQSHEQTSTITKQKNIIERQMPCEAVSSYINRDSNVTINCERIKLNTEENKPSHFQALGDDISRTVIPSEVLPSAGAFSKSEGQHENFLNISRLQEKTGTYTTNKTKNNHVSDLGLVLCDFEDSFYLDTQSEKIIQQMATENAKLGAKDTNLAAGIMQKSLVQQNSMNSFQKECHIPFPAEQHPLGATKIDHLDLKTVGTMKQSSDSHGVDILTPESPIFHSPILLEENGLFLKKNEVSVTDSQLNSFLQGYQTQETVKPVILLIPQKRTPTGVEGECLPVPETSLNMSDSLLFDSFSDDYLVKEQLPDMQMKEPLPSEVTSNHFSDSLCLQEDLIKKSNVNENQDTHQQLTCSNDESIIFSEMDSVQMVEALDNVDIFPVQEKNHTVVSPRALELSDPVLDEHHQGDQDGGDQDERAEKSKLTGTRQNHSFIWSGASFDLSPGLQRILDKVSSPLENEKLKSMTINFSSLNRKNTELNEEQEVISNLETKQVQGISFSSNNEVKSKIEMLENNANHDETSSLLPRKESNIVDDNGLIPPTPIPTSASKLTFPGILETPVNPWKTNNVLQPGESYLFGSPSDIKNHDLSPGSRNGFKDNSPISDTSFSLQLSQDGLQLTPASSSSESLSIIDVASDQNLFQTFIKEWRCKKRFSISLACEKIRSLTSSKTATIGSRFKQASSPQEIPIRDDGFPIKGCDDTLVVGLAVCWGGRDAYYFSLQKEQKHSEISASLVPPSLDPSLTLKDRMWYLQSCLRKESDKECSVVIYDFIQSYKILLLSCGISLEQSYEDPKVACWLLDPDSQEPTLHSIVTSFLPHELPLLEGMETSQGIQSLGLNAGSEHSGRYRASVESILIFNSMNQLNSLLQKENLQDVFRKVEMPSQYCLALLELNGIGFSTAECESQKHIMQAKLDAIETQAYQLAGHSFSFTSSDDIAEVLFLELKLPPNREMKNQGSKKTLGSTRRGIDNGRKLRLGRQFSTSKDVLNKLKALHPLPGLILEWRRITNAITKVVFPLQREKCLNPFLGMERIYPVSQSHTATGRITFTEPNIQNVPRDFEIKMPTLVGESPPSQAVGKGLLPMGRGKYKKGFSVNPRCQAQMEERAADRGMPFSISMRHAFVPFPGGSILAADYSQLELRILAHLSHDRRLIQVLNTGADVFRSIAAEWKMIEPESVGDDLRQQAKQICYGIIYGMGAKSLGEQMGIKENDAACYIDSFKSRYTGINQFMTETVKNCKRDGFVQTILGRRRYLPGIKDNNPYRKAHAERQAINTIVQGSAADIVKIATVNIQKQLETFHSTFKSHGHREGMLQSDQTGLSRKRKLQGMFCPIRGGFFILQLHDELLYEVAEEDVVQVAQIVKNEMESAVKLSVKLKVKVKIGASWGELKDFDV
Observed: enzyme activity
Mode: inhibitor
Concentration: 77 µM
Baseline: untreated
For `c1ccc2c(c1)OCC(C1=NCCN1)O2` (centres unmarked), the remaining activity was 105%.
`O=C1CCCN1CC#CCN1CCCC1` has a remaining activity of 102%.
The remaining activity of `C/C=C1\C[C@@H](C)[C@](O)(CO)C(=O)OCC2=CCN3CC[C@@H](OC1=O)[C@@H]23` is reported as 95.3%.
With `CCCN1CCC[C@@H]2Cc3nc(N)ncc3C[C@H]21` the remaining activity was 101%.
For `CCOC(=O)c1cncn1[C@H](C)c1ccccc1`, the remaining activity was 94.8% and 96.3%.
With `C[C@H]1C(=O)O[C@@H]2CCN3CC=C(COC(=O)[C@](C)(O)[C@]1(C)O)[C@H]23` the remaining activity was 103%.
The remaining activity of `NC(=O)COc1c(F)cc(SCCNS(=O)(=O)c2ccccc2)cc1F` is reported as 97%.
For `C[C@]12CCC(=O)C(O)=C1CC[C@@H]1[C@@H]2CC[C@]2(C)C(=O)CC[C@@H]12`, the remaining activity was 102%.

Series 3
SMILES: N/C(=N\[N+](=O)[O-])N/N=C\c1ccc(-c2cccc([N+](=O)[O-])c2)o1
Observed: enzyme activity
Mode: inhibitor
Concentration: 0.5 µM
Baseline: control
NUAK family SNF1-like kinase 2 (NUAK2, Homo sapiens, UniProt Q9H093) — remaining activity: 95.2%.
The remaining activity was 99.5% (Serine/threonine-protein kinase 26 (STK26, Homo sapiens, UniProt Q9P289)).
Myosin light chain kinase 2, skeletal/cardiac muscle (MYLK2, Homo sapiens, UniProt Q9H1R3) — remaining activity: 100%.
It gave 103% for remaining activity (Death-associated protein kinase 3 (DAPK3, Homo sapiens, UniProt O43293)).
Mitogen-activated protein kinase kinase kinase 11 (MAP3K11, Homo sapiens, UniProt Q16584) — remaining activity: 99.4%.
For Serine/threonine-protein kinase Nek7 (NEK7, Homo sapiens, UniProt Q8TDX7): remaining activity read 102%.
For Ephrin type-A receptor 8 (EPHA8, Homo sapiens, UniProt P29322): remaining activity read 102%.
It gave 103% for remaining activity (Receptor tyrosine-protein kinase erbB-4 (ERBB4, Homo sapiens, UniProt Q15303)).
It gave 96.4% for remaining activity (Casein kinase I isoform gamma-1 (CSNK1G1, Homo sapiens, UniProt Q9HCP0)).
For MAP kinase-activated protein kinase 5 (MAPKAPK5, Homo sapiens, UniProt Q8IW41): remaining activity read 94.6%.

Single results of other studies
`Cn1cncc1[C@@](O)(COc1ccc(C#N)cc1-c1ccc(OC(F)(F)F)cc1)c1ccc(C#N)cc1` has an inhibition of 9.56% (Translocator protein (Tspo, Rattus norvegicus, UniProt P16257); radioligand binding, radioligand displacement; 10 µM).
With `Cc1nccc(COC(=O)N2C[C@@H]3[C@@H](CNC(=O)c4ccc5[nH]nnc5c4)[C@@H]3C2)n1` the inhibition was 7.65% (5-hydroxytryptamine receptor 2A (HTR2A, Homo sapiens, UniProt P28223); binding, radioligand binding; 10 µM).
`Cn1nc(C(=O)NCc2ccc(C(=O)O)cc2)cc1-c1ccc2[nH]ccc2c1` gave a remaining binding of 76% (Serine/threonine-protein kinase PknB (pknB, Mycobacterium tuberculosis, UniProt P9WI81); cell-free assay, competition with immobilised ligand; 0.1 µM).

Excerpt of the above (series 1):
Under “fluorescence polarization change”, `COc1ccc([C@@]23Oc4cc(OC)cc(OC)c4[C@]2(O)c2nc(C(C)C)[nH]c(=O)c2[C@H]3c2ccccc2)cc1` is recorded as 21.2 mP.
For `COC(=O)[C@@H]1[C@@H](c2ccccc2)[C@]2(c3ccc(OC)cc3)Oc3cc(OC)cc(OC)c3[C@@]23OC(c2ccc(Cl)nc2)=N[C@@]13O`, “fluorescence polarization change” read 9.7 mP.
`COc1ccc([C@@]23Oc4cc(OC)cc(OC)c4[C@]2(O)c2nc(-c4ccc(O)cc4)[nH]c(=O)c2[C@H]3c2ccccc2)cc1`: “fluorescence polarization change” 5.9 mP.
